Assay results from different studies.
Every numbered part comes from another study and shows a few of its results, in no order. Several values in a cell are separate wells, animals, samples, runs or records.
UniProt P42336, sequence (whole entry, unmodified, looked up): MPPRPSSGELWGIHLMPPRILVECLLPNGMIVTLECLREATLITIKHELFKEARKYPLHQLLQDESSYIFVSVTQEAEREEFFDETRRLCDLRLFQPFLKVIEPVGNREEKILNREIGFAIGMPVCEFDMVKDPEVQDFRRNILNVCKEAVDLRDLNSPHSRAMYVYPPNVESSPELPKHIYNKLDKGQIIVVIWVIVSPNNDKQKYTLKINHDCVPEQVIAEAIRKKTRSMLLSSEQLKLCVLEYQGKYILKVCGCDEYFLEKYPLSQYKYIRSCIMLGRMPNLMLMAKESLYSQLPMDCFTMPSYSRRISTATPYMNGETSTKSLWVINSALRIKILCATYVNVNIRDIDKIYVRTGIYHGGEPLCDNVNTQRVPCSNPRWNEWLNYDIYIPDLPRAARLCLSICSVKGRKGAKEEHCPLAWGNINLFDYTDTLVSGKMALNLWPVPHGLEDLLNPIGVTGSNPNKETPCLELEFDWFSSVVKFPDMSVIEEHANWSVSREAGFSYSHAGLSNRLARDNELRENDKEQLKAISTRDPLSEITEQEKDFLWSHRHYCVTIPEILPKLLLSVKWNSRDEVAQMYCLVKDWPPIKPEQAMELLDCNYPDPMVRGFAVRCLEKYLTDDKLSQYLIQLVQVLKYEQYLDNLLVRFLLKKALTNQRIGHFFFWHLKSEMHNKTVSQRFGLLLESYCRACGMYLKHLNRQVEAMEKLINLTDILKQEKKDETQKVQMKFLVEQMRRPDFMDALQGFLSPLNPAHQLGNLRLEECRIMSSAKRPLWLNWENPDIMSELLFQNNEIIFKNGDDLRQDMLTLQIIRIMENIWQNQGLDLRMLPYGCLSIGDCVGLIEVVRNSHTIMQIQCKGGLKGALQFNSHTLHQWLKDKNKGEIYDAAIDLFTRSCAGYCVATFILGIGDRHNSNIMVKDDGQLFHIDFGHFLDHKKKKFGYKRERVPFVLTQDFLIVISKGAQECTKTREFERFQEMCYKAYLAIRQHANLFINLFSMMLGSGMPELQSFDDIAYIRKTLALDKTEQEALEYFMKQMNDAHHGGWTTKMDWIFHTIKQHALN
UniProt P53671, sequence (whole entry, looked up): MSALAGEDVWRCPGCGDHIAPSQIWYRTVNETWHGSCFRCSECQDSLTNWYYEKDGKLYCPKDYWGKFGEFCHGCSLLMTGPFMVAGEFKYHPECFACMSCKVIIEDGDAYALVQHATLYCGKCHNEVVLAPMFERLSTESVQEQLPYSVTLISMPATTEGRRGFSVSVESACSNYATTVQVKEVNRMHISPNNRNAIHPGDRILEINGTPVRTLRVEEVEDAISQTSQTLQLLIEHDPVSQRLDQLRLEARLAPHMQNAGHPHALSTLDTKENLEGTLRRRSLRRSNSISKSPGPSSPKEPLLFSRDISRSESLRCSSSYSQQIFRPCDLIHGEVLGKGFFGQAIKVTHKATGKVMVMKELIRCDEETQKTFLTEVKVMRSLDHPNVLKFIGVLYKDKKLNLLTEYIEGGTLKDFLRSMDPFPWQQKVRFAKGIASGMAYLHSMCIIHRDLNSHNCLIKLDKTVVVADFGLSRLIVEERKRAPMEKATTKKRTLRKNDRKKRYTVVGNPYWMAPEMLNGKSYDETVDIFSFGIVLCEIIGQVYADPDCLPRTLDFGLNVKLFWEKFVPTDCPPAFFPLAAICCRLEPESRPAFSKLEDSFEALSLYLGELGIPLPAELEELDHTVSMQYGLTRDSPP
UniProt P30291, sequence (whole entry, looked up): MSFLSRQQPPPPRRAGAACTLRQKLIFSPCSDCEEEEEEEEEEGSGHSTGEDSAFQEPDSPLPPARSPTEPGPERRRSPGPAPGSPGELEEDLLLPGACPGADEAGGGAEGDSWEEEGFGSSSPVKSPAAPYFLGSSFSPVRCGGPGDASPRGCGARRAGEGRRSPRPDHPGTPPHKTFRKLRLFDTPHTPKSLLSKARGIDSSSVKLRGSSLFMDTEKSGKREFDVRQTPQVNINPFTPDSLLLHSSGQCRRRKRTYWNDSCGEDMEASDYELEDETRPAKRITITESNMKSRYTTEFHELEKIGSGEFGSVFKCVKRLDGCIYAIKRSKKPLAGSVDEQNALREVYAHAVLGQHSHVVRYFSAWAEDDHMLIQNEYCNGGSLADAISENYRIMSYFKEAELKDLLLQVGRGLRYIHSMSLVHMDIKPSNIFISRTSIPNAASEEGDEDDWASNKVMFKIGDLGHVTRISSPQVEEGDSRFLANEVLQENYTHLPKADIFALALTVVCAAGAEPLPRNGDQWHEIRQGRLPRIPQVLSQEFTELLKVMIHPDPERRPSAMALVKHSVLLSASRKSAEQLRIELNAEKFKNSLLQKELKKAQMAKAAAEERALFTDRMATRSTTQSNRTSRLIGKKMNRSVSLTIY
UniProt Q8N752, sequence (whole entry, looked up): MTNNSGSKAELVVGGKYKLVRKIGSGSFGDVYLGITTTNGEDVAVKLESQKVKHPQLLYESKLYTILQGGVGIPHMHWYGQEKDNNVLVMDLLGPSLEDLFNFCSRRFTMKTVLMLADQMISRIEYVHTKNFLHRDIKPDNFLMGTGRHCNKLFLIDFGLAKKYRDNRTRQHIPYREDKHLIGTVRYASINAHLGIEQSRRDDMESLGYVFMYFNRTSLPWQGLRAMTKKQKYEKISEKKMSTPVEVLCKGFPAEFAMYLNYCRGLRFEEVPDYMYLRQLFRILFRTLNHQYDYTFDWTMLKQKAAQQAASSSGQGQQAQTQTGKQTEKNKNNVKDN
UniProt Q9UK32, sequence (whole entry, looked up): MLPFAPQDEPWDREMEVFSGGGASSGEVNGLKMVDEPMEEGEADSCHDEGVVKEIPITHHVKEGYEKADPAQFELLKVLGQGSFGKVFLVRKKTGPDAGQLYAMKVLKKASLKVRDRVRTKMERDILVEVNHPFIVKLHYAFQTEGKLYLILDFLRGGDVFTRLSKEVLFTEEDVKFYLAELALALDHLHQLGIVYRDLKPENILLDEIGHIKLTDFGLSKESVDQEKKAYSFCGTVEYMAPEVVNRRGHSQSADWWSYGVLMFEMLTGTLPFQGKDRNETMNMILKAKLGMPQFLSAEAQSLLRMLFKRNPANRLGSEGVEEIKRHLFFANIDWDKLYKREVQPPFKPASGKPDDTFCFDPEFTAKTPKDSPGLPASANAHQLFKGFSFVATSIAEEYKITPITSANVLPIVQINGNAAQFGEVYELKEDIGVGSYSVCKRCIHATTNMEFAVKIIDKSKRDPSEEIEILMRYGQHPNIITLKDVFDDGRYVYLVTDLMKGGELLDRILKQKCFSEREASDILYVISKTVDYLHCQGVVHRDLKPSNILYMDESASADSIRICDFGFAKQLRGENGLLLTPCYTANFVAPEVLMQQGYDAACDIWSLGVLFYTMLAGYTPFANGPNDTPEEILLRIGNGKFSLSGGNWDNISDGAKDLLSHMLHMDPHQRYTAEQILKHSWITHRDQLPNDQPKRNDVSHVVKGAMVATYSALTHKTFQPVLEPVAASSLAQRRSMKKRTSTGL
UniProt P29597, sequence (whole entry, looked up): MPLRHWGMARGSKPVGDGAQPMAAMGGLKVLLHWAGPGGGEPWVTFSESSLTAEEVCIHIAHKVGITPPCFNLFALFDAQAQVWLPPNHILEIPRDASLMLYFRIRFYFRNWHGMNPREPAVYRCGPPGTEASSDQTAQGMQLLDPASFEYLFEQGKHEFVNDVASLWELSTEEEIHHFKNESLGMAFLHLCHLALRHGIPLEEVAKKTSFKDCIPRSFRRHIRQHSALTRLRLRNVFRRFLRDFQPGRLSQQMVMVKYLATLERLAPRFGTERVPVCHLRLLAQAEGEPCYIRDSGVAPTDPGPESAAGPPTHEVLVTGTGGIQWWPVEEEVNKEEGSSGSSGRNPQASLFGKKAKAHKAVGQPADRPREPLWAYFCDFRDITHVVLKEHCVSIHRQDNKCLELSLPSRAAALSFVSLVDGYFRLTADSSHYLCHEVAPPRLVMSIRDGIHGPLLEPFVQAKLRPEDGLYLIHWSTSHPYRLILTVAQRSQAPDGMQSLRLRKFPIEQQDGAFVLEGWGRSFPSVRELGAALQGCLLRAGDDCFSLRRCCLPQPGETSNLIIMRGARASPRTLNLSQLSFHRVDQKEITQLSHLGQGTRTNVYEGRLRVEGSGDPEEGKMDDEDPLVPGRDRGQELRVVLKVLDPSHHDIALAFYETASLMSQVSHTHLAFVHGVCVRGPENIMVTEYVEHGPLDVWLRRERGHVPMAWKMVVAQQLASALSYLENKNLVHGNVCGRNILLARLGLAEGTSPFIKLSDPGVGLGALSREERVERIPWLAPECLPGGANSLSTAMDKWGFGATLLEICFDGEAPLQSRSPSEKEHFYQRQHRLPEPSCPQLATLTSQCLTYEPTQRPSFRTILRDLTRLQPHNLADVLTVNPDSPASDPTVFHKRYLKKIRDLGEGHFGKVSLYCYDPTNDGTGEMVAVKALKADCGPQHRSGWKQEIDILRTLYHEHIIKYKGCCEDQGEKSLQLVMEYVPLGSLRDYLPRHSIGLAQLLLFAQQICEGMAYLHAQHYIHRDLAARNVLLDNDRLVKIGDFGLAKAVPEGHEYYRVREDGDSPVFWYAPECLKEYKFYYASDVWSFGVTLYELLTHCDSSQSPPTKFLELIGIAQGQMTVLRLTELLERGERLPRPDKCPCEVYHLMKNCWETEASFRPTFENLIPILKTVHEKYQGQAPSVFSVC

Series 1 — observed: AlphaScreen signal; method: AlphaScreen counter screen; sample: His6 peptide without bromodomain; tested at: 50 µM; notes: assay interference check
`O=C1NC(=O)C(=Cc2ccc3nccnc3c2)S1` gave an inhibition of -0.3%.
For `CCOc1cc(C=NNc2ccc3nnc(-c4ccc(Br)cc4)n3n2)ccc1O`, the inhibition was 9.3%.
`COc1cccc(NC(=O)c2c(O)c3ccccc3[nH]c2=O)c1` gave an inhibition of 15.7%.

Series 2 — cell line: Huh-7; tested at: 10 µM; time: 24 h
The viability of `Nc1ccc(S(=O)(=O)Nc2ccc(Cl)nn2)cc1` is reported as 94.6%.
`Cc1ccc(S(=O)(=O)NC(=O)NN2CCCCCC2)cc1` gave a viability of 93.7%.
With `NC[C@H]1O[C@H](O[C@H]2[C@H](O)[C@@H](O[C@H]3O[C@H](CO)[C@@H](O)[C@H](N)[C@H]3O)[C@H](N)C[C@@H]2N)[C@H](O)[C@@H](O)[C@@H]1O` the viability was 100%.

Series 3 — cell line: mouse MPNST tumor cells; method: high-content nuclear imaging; item: cell number; tested at: 10 µM; time: 12 h; notes: mean of 2 replicates; relative to: plate mean; direction: higher = more cells
The nuclei count of `C=CC[N@@+]12CC[C@@]34c5ccccc5N5/C=C6/[C@H]7C[C@H]8[C@@]9(CC[N@@+]8(CC=C)C/C7=C/CO)c7ccccc7N(/C=C(/[C@@H](C[C@@H]31)/C(=C\CO)C2)[C@H]54)[C@@H]69` is reported as 0.335 z-score.
`Cc1cnc(C(=O)NCCc2ccc(S(=O)(=O)NC(=O)NC3CCCCC3)cc2)cn1` has a nuclei count of 2.32 z-score.
The nuclei count of `Cc1cccc(N(C)C(=S)Oc2ccc3ccccc3c2)c1` is reported as 1.61 z-score.
With `NCCc1cc[nH]n1` the nuclei count was 1.21 z-score.
The nuclei count of `C[C@H](N[C@@H](CCc1ccccc1)C(=O)O)C(=O)N1CCC[C@H]1C(=O)O` is reported as 0.658 z-score and 1.24 z-score.

Series 4 — observed: cell-free assay; method: competition with immobilised ligand; tested at: 1 µM
SMILES: CC(=O)C1=C(C)N(c2cccc(C(F)(F)F)c2)C(=O)N[C@@H]1c1ccc(C#N)nc1
Phosphatidylinositol 4,5-bisphosphate 3-kinase catalytic subunit alpha isoform (PIK3CA, Homo sapiens, UniProt P42336, Q546K) — remaining binding: 100%.
Serine/threonine-protein kinase WNK3 (WNK3, Homo sapiens, UniProt Q9BYP7) — remaining binding: 100%.
The remaining binding was 100% (Mitogen-activated protein kinase kinase kinase 1 (MAP3K1, Homo sapiens, UniProt Q13233)).
It gave 91.7% for remaining binding (LIM domain kinase 2 (LIMK2, Homo sapiens, UniProt P53671)).
For Ribosomal protein S6 kinase alpha-6, C-terminal kinase domain (RPS6KA6, Homo sapiens, UniProt Q9UK32): remaining binding read 87.7%.
The remaining binding was 100% (Casein kinase I isoform alpha-like (CSNK1A1L, Homo sapiens, UniProt Q8N752)).
For Epidermal growth factor receptor (EGFR, Homo sapiens, UniProt P00533, L858R): remaining binding read 80.8%.
It gave 100% for remaining binding (Wee1-like protein kinase (WEE1, Homo sapiens, UniProt P30291)).
The remaining binding was 97.9% (Dual specificity protein kinase TTK (TTK, Homo sapiens, UniProt P33981)).
It gave 100% for remaining binding (Phosphatidylinositol 4,5-bisphosphate 3-kinase catalytic subunit alpha isoform (PIK3CA, Homo sapiens, UniProt P42336, E542K)).
The remaining binding was 86.5% (Myotonin-protein kinase (DMPK, Homo sapiens, UniProt Q09013)).
Serine/threonine-protein kinase Nek5 (NEK5, Homo sapiens, UniProt Q6P3R8) — remaining binding: 80.6%.
Non-receptor tyrosine-protein kinase TYK2, JH1 (TYK2, Homo sapiens, UniProt P29597) — remaining binding: 91.3%.
For Tyrosine-protein kinase ABL1, non-phosphorylated (ABL1, Homo sapiens, UniProt P00519, F317L): remaining binding read 100%.
It gave 72% for remaining binding (Serine/threonine-protein kinase Nek3 (NEK3, Homo sapiens, UniProt P51956)).
Serine/threonine-protein kinase MRCK beta (CDC42BPB, Homo sapiens, UniProt Q9Y5S2) — remaining binding: 100%.

Series 5 — host: mouse; sample: microsomes or S9; tested at: 2 µM; time: 0.5 h
The remaining compound of `Cn1c(C(F)(F)F)nn(CCNS(=O)(=O)CCN2C(=O)CCCC2=O)c1=O` is reported as 67.2%.
`NS(=O)(=O)c1ccc(CNc2nc(Cl)nc3[nH]cnc23)cc1` has a remaining compound of 91%.
`CN(c1cccc(NC(=O)C(C)(C)C)c1)S(C)(=O)=O` gave a remaining compound of 61.5%.

Series 6 — cell line: A-375; tested at: 100 µM; time: 36 h
With `CC1=C(/C=C/C(C)=C/C=C/C(C)=C/C=C/C=C(C)/C=C/C=C(C)/C=C/C2=C(C)C(=O)[C@@H](O)CC2(C)C)C(C)(C)C[C@H](O)C1=O` the viability was 106%.
`COc1ccc([C@@H]2Sc3ccccc3N(CCN(C)C)C(=O)[C@@H]2OC(C)=O)cc1` gave a viability of 116%.
For `Oc1c(I)cc(Cl)c2cccnc12`, the viability was 11.2%.
With `CCOC(=O)N[C@@H]1CC[C@@H]2[C@@H](C1)C[C@H]1C(=O)O[C@H](C)[C@H]1[C@H]2/C=C/c1ccc(-c2cccc(F)c2)cn1` the viability was 102%.

Repeated from above (series 3):
The nuclei count of `C=CC[N@@+]12CC[C@@]34c5ccccc5N5/C=C6/[C@H]7C[C@H]8[C@@]9(CC[N@@+]8(CC=C)C/C7=C/CO)c7ccccc7N(/C=C(/[C@@H](C[C@@H]31)/C(=C\CO)C2)[C@H]54)[C@@H]69` is reported as 0.335 z-score.
`Cc1cnc(C(=O)NCCc2ccc(S(=O)(=O)NC(=O)NC3CCCCC3)cc2)cn1` has a nuclei count of 2.32 z-score.
The nuclei count of `Cc1cccc(N(C)C(=S)Oc2ccc3ccccc3c2)c1` is reported as 1.61 z-score.
With `NCCc1cc[nH]n1` the nuclei count was 1.21 z-score.
The nuclei count of `C[C@H](N[C@@H](CCc1ccccc1)C(=O)O)C(=O)N1CCC[C@H]1C(=O)O` is reported as 0.658 z-score and 1.24 z-score.
